{"data": "Measured values from different studies", "note": "Compare with care: the assays were run in different laboratories. Numbers after ± are the reported error."}
{"SMILES": "CCN1CCN(Cc2ccc(Nc3ncc(F)c(-c4cc(F)c5nc6n(c5c4)[C@H](C)CCC6)n3)nc2)CC1", "test system": "patients with advanced solid tumours", "conditions": "500 mg, phase Ia monotherapy", "measurement": "dose-limiting toxicity rate", "value": "4.2%"}
{"SMILES": "CO[C@H]1C[C@@H]2CC[C@@H](C)[C@@](O)(O2)C(=O)C(=O)N2CCCC[C@H]2C(=O)O[C@H]([C@H](C)C[C@@H]2CC[C@@H](OC(=O)NCCOCCOCCOCCOCCOCCOCCOCCOCCC(=O)N3CCc4cc(Cn5nc(-c6ccc7oc(N)nc7c6)c6c(N)ncnc65)ccc4C3)[C@H](OC)C2)C[C@@H](O)[C@H](C)/C=C(\\C)[C@@H](O)[C@@H](OC)C(=O)[C@H](C)C[C@H](C)/C=C/C=C/C=C/1C", "test system": "patients with advanced solid tumours", "conditions": "intravenous, 6 mg weekly, any grade", "measurement": "AE leading to dose reduction", "value": "0%"}
{"SMILES": "C[C@@H](NC(=O)N1C(=O)[C@H](Cc2ccnc(N)c2)[C@H]1C(=O)O)C1CCCCC1", "test system": "healthy adult Chinese volunteers", "conditions": "continuous intravenous infusion, 0.6 mg/kg/h, 5-day infusion, CTCAE 5.0 grading", "measurement": "incidence of urine leukocyte esterase positive", "value": "50%"}
{"SMILES": "CCCCCOc1ccc(-c2ccc(-c3ccc(C(=O)N[C@H]4C[C@@H](O)[C@@H](OCC[N+](C)(C)C)NC(=O)[C@@H]5[C@@H](O)[C@@H](C)CN5C(=O)[C@H]([C@@H](C)O)NC(=O)[C@H]([C@H](O)[C@@H](O)c5ccc(O)cc5)NC(=O)[C@@H]5C[C@@H](O)CN5C(=O)[C@H]([C@@H](C)O)NC4=O)cc3)cc2)cc1", "test system": "adult patients not in ICU, plasma", "conditions": "intravenous, 400 mg loading, after first dose, median", "measurement": "AUC(0-168 h)", "value": "788 µg·h/mL"}
{"SMILES": "CC(C)[C@@H]1NC(=O)CNC(=O)[C@H](CC(N)=O)NC(=O)[C@H](CCCNC(=N)N)NC(=O)[C@H](Cc2ccc(O)cc2)NC(=O)[C@H](C(C)C)NC(=O)[C@@H](NC(=O)[C@@H](NC(=O)[C@H](CC(N)=O)NC(=O)[C@H](Cc2c[nH]c3ccccc23)NC(=O)[C@H](C)NC(=O)[C@H](Cc2ccccc2)NC(=O)CN)C(C)C)CSSC[C@@H](C(=O)N[C@@H](Cc2cnc[nH]2)C(=O)N[C@@H](CCCNC(=N)N)C(=O)N[C@@H](CCCNC(=N)N)C(=O)N[C@@H](C)C(=O)N[C@@H](CC(N)=O)C(N)=O)NC(=O)[C@H](C(C)C)NC(=O)[C@H](CCCNC(=N)N)NC1=O", "test system": "ICR mice, blood", "conditions": "intraperitoneal, 5 mg/kg, day 5", "measurement": "platelet distribution width", "value": "16 ± 0.62%"}
{"SMILES": "CC(C)(O)c1cc(Nc2cc(Oc3cn(C4CC4)nc3C3CCOCC3)ccn2)ccn1", "test system": "patients with advanced cancer, Japanese cohort", "conditions": "oral, dose not given, treatment-related adverse events", "measurement": "AST increased, any grade", "value": "33%"}
{"SMILES": "O=c1ccccc(C2CCCO2)c1O (centres unmarked)", "test system": "male CD-1 mice", "conditions": "oral, micronucleus study", "measurement": "maximum tolerated dose", "value": "1000 mg/kg"}
{"SMILES": "Cn1ncc(-c2nc(N[C@H]3CC[C@H](N)CC3)ncc2Cl)c1CC1CC1", "test": "HPLC-MS/MS", "test system": "patients, plasma", "conditions": "oral, 11 mg, day 5", "measurement": "AUC", "value": "1.82 µg·h/mL"}
{"SMILES": "CC[C@H](C)[C@@H]1NC(=O)[C@@H]2CSSC[C@H](NC(=O)[C@H](CCCNC(=N)N)NC(=O)[C@@H]3CSSC[C@H](NC1=O)C(=O)N[C@@H]([C@@H](C)O)C(=O)N[C@@H](CCCNC(=N)N)C(=O)NCC(=O)N[C@@H](Cc1ccccc1)C(=O)N3)C(=O)N[C@@H](CC(C)C)C(=O)N[C@H]1CSSC[C@H](NC(=O)[C@H](C(C)C)NC(=O)CNC(=O)[C@H](CCCNC(=N)N)NC(=O)[C@H](CCCNC(=N)N)NC1=O)C(=O)N[C@@H](CCCNC(=N)N)C(=O)N2", "test system": "Sprague-Dawley rats, male, liver", "conditions": "20 mg/kg", "how to read": "direction not given", "measurement": "hepatocyte necrosis score", "value": "1 to 3"}
{"SMILES": "O=C(Nc1ccccc1)C1CCN(C(=O)Oc2cccnc2)CC1", "test": "adverse event reporting", "test system": "healthy women", "conditions": "oral, 100 mg, 9 days", "measurement": "subjects with infections and infestations", "value": "7.7%"}
{"SMILES": "C[C@]1(CO)Cc2ncn(-c3ccc(C#N)c(Cl)c3)c2C(=O)O1", "test system": "Japanese subjects", "conditions": "3 mg single dose", "measurement": "drug-related Dizziness incidence", "value": "0%"}
{"SMILES": "Fc1ccc([C@@H]2CCNC[C@H]2COc2ccc3c(c2)OCO3)cc1", "test": "item: Bruxism", "test system": "healthy volunteers", "conditions": "oral, dose not given, given -1 h relative to LSD, together with: LSD", "how to read": "direction not given", "measurement": "List of Complaints score", "value": "3 score"}
{"SMILES": "COc1cc2c(Oc3ccc4[nH]c(C)cc4c3F)ccnc2cc1OCC1(N)CC1", "test system": "paediatric refractory sarcoma patients", "conditions": "8 mg", "measurement": "Triglyceride elevation incidence", "value": "0%"}
{"SMILES": "C[C@]1(O)C[C@@](N)(c2ccc(-c3nc4n(c3-c3ccccc3)COc3ccncc3-4)cc2)C1", "test system": "human, advanced or metastatic solid tumours", "conditions": "dose not given, intermittent dose escalation total", "measurement": "patients with AST increased TEAE", "value": "0%"}
{"note": "Repeated from above:"}
{"SMILES": "C[C@@H](NC(=O)N1C(=O)[C@H](Cc2ccnc(N)c2)[C@H]1C(=O)O)C1CCCCC1", "test system": "healthy adult Chinese volunteers", "conditions": "continuous intravenous infusion, 0.6 mg/kg/h, 5-day infusion, CTCAE 5.0 grading", "measurement": "incidence of urine leukocyte esterase positive", "value": "50%"}
{"SMILES": "O=c1ccccc(C2CCCO2)c1O (centres unmarked)", "test system": "male CD-1 mice", "conditions": "oral, micronucleus study", "measurement": "maximum tolerated dose", "value": "1000 mg/kg"}
